Measured values gathered from unrelated publications.
Protocols differ between the studies behind these lines. Numbers after ± are the reported error.
P2RX4: P2X purinoceptor 4 (P2RX4, Homo sapiens, UniProt Q99571)
Sequence of UniProt Q99571 (whole entry, looked up): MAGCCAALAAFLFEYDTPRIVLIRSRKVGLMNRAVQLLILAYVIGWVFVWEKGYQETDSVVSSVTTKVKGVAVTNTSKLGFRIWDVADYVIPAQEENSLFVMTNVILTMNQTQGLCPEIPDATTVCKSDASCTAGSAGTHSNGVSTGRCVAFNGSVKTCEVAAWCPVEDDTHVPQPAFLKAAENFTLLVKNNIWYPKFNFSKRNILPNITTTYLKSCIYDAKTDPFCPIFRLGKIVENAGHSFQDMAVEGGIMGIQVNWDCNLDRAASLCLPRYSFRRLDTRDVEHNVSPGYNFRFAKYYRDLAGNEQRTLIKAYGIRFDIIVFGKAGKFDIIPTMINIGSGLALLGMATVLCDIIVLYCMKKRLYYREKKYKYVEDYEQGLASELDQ
Probable G-protein coupled receptor 34: Probable G-protein coupled receptor 34 (Homo sapiens, UniProt Q9UPC5)
Sequence of UniProt Q9UPC5 (whole entry, looked up): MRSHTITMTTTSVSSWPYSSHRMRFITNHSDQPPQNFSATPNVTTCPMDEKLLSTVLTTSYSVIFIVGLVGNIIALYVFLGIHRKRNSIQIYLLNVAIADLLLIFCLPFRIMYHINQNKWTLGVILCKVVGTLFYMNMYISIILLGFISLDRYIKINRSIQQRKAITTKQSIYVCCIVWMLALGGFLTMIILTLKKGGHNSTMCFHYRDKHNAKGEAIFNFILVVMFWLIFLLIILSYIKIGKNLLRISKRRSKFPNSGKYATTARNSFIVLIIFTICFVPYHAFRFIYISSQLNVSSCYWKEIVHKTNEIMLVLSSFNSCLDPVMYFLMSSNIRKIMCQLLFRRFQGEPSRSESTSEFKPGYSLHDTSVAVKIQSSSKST
Proteasome subunit beta type-9: Proteasome subunit beta type-9 (Homo sapiens, UniProt P28065)
Sequence of UniProt P28065 (whole entry, looked up): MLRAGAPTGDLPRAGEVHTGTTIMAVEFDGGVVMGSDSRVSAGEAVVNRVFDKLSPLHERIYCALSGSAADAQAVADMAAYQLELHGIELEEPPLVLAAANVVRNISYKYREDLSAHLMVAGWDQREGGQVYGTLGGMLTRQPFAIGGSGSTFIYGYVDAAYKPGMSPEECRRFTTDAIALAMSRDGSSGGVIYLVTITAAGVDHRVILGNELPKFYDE
pyrD: Dihydroorotate dehydrogenase (quinone) (pyrD, Acinetobacter baumannii, UniProt B7GZW7)
Sequence of UniProt B7GZW7 (whole entry, looked up): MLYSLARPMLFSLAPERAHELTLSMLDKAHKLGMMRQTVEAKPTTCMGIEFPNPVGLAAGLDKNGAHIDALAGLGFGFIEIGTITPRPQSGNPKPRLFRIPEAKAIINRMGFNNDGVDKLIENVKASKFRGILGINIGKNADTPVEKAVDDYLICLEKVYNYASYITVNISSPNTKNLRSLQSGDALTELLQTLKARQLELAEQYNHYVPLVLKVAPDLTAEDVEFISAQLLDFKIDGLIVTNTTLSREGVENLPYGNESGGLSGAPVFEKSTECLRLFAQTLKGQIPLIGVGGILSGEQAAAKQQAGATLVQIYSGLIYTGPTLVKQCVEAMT
Sequence of UniProt O09061 (whole entry, looked up): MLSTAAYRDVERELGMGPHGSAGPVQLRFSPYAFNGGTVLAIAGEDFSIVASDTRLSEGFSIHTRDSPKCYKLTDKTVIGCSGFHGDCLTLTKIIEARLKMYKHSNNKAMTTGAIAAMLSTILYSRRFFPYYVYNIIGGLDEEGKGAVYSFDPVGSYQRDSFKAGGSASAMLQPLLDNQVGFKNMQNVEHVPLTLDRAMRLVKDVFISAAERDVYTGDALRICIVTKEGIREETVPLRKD
Sequence of UniProt P26358 (whole entry, unmodified, looked up): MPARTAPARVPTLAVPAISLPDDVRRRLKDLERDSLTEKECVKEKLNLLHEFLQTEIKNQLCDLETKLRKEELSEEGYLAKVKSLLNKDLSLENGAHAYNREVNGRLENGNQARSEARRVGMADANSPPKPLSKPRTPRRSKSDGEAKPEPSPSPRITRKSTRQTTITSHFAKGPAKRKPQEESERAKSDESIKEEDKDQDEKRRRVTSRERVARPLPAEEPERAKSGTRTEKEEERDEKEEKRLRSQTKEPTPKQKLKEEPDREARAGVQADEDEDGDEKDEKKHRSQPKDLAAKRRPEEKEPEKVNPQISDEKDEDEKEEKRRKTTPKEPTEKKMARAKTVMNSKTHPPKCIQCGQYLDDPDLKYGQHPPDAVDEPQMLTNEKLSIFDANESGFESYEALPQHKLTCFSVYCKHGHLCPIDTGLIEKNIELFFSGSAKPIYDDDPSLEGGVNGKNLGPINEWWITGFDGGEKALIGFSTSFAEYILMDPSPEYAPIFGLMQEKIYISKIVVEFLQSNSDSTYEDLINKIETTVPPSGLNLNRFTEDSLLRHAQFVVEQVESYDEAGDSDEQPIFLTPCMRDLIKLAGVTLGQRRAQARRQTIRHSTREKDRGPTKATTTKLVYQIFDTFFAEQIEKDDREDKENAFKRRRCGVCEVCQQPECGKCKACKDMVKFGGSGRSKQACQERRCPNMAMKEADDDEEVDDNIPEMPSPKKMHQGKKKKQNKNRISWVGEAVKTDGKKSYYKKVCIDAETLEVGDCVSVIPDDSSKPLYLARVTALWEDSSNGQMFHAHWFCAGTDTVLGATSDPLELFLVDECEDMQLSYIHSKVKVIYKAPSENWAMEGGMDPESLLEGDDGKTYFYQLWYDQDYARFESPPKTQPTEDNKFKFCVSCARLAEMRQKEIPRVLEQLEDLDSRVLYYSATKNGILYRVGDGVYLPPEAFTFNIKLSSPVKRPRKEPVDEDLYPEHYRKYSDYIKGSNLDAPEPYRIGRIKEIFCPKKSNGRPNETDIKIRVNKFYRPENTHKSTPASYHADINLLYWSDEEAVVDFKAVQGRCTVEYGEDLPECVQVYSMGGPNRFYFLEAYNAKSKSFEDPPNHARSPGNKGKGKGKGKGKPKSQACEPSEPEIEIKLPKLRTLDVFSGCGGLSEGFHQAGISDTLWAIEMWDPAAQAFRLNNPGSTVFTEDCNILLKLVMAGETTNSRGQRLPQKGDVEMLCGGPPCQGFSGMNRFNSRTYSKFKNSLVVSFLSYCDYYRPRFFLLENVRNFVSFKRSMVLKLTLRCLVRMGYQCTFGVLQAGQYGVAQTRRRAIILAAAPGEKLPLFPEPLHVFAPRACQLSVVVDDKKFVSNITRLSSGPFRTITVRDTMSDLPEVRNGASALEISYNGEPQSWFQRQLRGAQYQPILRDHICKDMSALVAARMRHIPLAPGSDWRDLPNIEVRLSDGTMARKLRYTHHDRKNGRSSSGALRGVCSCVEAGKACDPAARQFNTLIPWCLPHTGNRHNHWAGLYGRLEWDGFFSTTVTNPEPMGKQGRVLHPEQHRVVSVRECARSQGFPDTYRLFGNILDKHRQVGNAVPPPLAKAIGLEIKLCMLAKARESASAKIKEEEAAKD
Sequence of UniProt O14757 (whole entry, looked up): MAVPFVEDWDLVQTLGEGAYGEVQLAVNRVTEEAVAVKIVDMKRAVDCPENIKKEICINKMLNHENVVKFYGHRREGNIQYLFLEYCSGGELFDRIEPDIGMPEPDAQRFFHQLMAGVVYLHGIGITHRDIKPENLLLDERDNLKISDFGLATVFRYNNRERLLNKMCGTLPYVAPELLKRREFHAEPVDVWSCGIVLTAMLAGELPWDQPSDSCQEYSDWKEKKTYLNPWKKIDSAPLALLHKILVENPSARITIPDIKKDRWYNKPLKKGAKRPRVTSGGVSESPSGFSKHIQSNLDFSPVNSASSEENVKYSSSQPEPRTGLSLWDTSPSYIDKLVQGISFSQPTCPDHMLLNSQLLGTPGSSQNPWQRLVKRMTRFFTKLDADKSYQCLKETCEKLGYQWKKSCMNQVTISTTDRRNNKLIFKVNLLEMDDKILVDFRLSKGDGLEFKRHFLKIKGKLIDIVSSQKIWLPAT
Sequence of UniProt Q92769 (whole entry, looked up): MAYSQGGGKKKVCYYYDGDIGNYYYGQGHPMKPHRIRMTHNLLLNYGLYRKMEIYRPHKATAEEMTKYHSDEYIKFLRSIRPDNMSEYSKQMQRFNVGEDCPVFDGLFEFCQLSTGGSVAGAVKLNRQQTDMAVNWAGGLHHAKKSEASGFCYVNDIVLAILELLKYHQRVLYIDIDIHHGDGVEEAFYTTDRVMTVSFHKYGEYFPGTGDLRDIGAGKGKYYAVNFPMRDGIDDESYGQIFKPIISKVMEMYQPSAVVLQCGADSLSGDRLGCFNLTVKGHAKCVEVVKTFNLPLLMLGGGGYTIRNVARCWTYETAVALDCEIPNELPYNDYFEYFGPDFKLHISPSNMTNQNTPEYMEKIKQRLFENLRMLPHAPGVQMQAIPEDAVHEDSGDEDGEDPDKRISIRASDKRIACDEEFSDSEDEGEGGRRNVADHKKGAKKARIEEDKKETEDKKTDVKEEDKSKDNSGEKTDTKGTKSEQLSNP
Sequence of UniProt P17787 (whole entry, looked up): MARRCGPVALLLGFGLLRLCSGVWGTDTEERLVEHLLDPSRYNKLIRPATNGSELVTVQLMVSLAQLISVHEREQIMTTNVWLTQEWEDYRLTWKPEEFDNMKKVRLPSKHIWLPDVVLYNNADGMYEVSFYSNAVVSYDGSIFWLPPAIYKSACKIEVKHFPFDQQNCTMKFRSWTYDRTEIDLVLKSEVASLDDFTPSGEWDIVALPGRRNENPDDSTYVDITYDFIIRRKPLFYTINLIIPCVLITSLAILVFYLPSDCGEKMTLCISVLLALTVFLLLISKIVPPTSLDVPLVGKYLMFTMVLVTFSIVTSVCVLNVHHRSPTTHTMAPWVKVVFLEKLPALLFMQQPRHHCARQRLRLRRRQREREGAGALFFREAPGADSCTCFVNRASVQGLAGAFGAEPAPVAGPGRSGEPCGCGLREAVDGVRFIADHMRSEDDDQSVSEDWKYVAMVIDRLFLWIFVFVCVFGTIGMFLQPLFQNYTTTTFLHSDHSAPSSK
Sequence of UniProt P28063 (whole entry, looked up): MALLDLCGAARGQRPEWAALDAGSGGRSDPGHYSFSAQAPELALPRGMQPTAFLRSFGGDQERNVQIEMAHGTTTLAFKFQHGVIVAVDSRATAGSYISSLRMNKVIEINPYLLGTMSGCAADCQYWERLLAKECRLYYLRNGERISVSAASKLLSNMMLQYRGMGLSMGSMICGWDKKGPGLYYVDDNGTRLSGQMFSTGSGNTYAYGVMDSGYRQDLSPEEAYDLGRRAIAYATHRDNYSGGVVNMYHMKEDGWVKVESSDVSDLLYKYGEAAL

Compound | target | test | test system | conditions | IC50 [µM]
CCn1c(-c2nc3ccc(C(=O)N4CCCC(N)C4)cc3n2C)cc2ccccc21 (stereo not drawn) | PADI4 (Homo sapiens, UniProt Q9UM07) | binding, chemoproteomic bead capture dot-blot | NB-4 cell lysate |  | > 10
CCc1ccc(Cn2nnc3c4ccc(F)cc4c(=O)[nH]c32)cc1 | PARP11 (Homo sapiens, UniProt Q9NR21) |  |  |  | > 10
COc1ccc(OCC2CNCCN2c2ccc(F)cc2)cc1OC (stereo not drawn) | P2RX4 | calcium flux, inhibitor, Ca2+ flux | human cells |  | > 100
COc1cc2c(Nc3ccc(NC(=O)c4ccccc4)cc3)ncnc2cc1OCCCN1CCOCC1 | Probable G-protein coupled receptor 34 | antagonist, Tango |  | with: LysoPS 5 µM | > 10
O=C1C(CC[S+]([O-])c2ccccc2)C(=O)N(c2ccccc2)N1c1ccccc1 (stereo not drawn) | SLC22A11 (Homo sapiens, UniProt Q9NSA0) | transport, inhibitor | CHO expressing hOAT4 | 5 min, with: [3H]estrone sulfate 14 nM | 20 ± 1.6
O=S(=O)(c1ccc(F)cc1)N1CCNCC1COc1ccc2ccccc2c1 (stereo not drawn) | P2RX4 | calcium flux, inhibitor, Ca2+ flux | human cells |  | 6.91 ± 0.2
CC(C)C[C@H](NC(=O)[C@H](CCc1ccccc1)NC(=O)CN1CCOCC1)C(=O)N[C@@H](Cc1ccccc1)C(=O)N[C@@H](CC(C)C)C(=O)[C@@]1(C)CO1 | Proteasome subunit beta type-1/Psmb8, LMP7 subunit (Mus musculus, UniProt O09061+P28063) | proteasome subunit activity | Ba/F3 BCR-ABL1 M351T | 1 h pulse | 0.00683 ± 0.00096
Oc1ccc(Nc2nc(-c3ccccn3)cs2)cc1 | CLEC1B, with podoplanin (Homo sapiens, UniProt Q9P126) | podoplanin binding, inhibitor, AlphaScreen |  | 250 nM CLEC-2, with: 50 nM biotinylated podoplanin-Fc | 2.9
Nc1ccc(C(=O)Nc2ccc(-c3nc4ccc(NC(=O)c5ccc(N)cc5)cc4s3)cc2)cc1 | Moesin, with CD44 (Homo sapiens, UniProt P26038) | MSN-CD44 binding, inhibitor, TR-FRET |  |  | 8.1
C=CC(=O)Nc1cccc(Oc2nc(Nc3ccc(N4CCN(C)CC4)cc3)nc3ccoc23)c1 | SRC (Homo sapiens, UniProt P12931) |  |  |  | 0.568
Cn1cc2c(C(=O)O)ccc(NS(=O)(=O)c3ccc(OCC4CCC4)c(Cl)c3)c2n1 | SLC6A3 (Homo sapiens, UniProt Q01959) | antagonist |  |  | > 10
Cc1ncc(C(=O)N[C@@H](CC(C)C)C(=O)N[C@@H](CC(C)C)C(=O)N[C@H](/C=C/S(C)(=O)=O)Cc2ccc(CN)cc2)s1 | Proteasome subunit beta type-9 | competitive ABPP | Raji cell lysate |  | > 10
CCCN1CCN(c2ccc(-c3cncc(Cl)c3N3CCC4(CCNC4=O)CC3)cc2)CC1 | Cyclin-dependent kinase 8, with cyclin C (CDK8, Homo sapiens, UniProt P49336) |  |  |  | 0.007
Cc1ccc2ccc3ccc(C)nc3c2n1 | Superoxide dismutase [Cu-Zn], fully metallated (SOD1, Homo sapiens, UniProt P00441) | enzyme activity, inhibitor, XTT |  |  | > 75
Cc1ncc(C(=O)N[C@@H](CC(C)C)C(=O)N[C@@H](CC2CCC(C3CCCCC3)CC2)C(=O)N[C@H](/C=C/S(C)(=O)=O)Cc2ccc(CN)cc2)s1 (stereo partly drawn) | Proteasome subunit beta type-9 | competitive ABPP | Raji cell lysate |  | > 10
Cc1c(-c2ccccc2)oc2ccccc2c1=O | LRRC8A (Homo sapiens, UniProt Q8IWT6) | hypotonicity-induced current | HEK293 |  | 37.2
Cc1ncc(C(=O)N[C@@H](CC(C)C)C(=O)N[C@@H](CC2CCC3CCCCC3C2)C(=O)N[C@H](/C=C/S(C)(=O)=O)Cc2ccc(CN)cc2)s1 (stereo partly drawn) | Proteasome subunit beta type-9 | competitive ABPP | Raji cell lysate |  | > 10
CN(C/C=C/C#CC(C)(C)C)Cc1cccc2ccccc12 | Cytochrome P450 2D6 (CYP2D6, Homo sapiens, UniProt P10635) |  |  | pH 7.4 | 0.03

Compound | target | test | test system | conditions | IC50 [µM]
COC1CCC(C[C@H](NC(=O)[C@H](CC(C)C)NC(=O)c2cnc(C)s2)C(=O)N[C@H](/C=C/S(C)(=O)=O)Cc2ccc(CN)cc2)CC1 (stereo partly drawn) | Proteasome subunit beta type-9 | competitive ABPP | Raji cell lysate |  | > 10
COCCOc1ccc(N2CCNCC2COc2ccc3c(c2)OCO3)cc1 (stereo not drawn) | P2RX4 | Ca2+ flux, antagonist | human cells expressing P2RX4 | racemate tested | > 10
CN1CCC(CNc2ccc3ncc(-c4cccc(OC(F)(F)F)c4)n3n2)CC1 | Neuronal acetylcholine receptor; alpha4/beta2 (Homo sapiens, UniProt P17787+P43681) | ion channel function, blocker |  | top concentration 10 µM | 2.97
CN1CCN(c2ccc(Nc3ncc4cc(C#N)c(=O)n(C5CCCC5)c4n3)cc2)CC1 | CHEK1 (Homo sapiens, UniProt O14757) |  |  |  | 0.566
O=S(=O)(Cc1ccccc1)N1CCNCC1COc1ccc2ccccc2c1 (stereo not drawn) | P2RX4 | calcium flux, inhibitor, Ca2+ flux | human cells |  | 2.57 ± 0.36
Cc1ccc(S(=O)(=O)/C=C/C#N)cc1 | USP1 (Homo sapiens, UniProt O94782) | enzyme activity, inhibitor, MALDI-TOF DUB |  | 35 min preincubation, 30 °C, with: UAF1 complex | 1.62
c1ccc(N2CCNCC2COc2ccc3c(c2)OCO3)cc1 (stereo not drawn) | P2RX4 | Ca2+ flux, antagonist | human cells expressing P2RX4 | racemate tested | > 10
Nc1cc(Nc2ccc(C(F)(F)F)cc2)n2ncnc2n1 | pyrD | enzyme activity, inhibitor, DCIP steady-state rate |  |  | 7 ± 2.6
COc1ccc(C[C@H](N)C(=O)N[C@H]2[C@@H](O)[C@H](n3cnc4c(N(C)C)ncnc43)O[C@@H]2CO)cc1 | rat aminopeptidase III | enzyme activity, inhibitor |  |  | 2.6
Cc1cc(CS(=O)(=O)c2ccccc2)cc(OCc2ccc(CN3CCC[C@@H]3CO)cc2)c1 | Probable G-protein coupled receptor 34 | antagonist, Tango |  | with: LysoPS 5 µM | > 10
CCn1c(-c2nc3cc(C(=O)N4CCC[C@@H](N)C4)cc(OC)c3n2C)cc2cccnc21 | CACNA1C (Homo sapiens, UniProt Q13936) | antagonist, intracellular Ca2+ fluorescence | human cells |  | > 15.8
CC1(C)CC[C@]2(C(=O)O)CC[C@]3(C)C(=CC[C@@H]4[C@@]5(C)C[C@@H](O)[C@H](OC(=O)/C=C/c6ccc(O)cc6)C(C)(C)[C@@H]5CC[C@]43C)[C@@H]2C1 (relative stereo) | Presenilin-1, in γ-secretase complex (PSEN1, Homo sapiens, UniProt P49768) | Aβ42 production, inhibitor, cell-free γ-secretase | HeLa membranes | with: APP-CTF substrate | 0.3
Cc1cc(C(=O)Nc2nc3cccc(Cl)c3n2[C@@H]2CCCCN(C(=O)/C=C/CN(C)C)C2)ccn1 | ERBB2 (Homo sapiens, UniProt P04626) |  |  |  | > 0.1
CN(C)c1nonc1/C(=N/O)Nc1ccc(F)c(Br)c1 | IDO1 (Homo sapiens, UniProt P14902) | enzyme activity, inhibitor |  | pH 6.5 | > 20
Fc1ccc(N2CCNCC2CSc2ccccc2)cc1 (stereo not drawn) | P2RX4 | calcium flux, inhibitor, Ca2+ flux | human cells |  | 7.41 ± 3.55
Nc1nc(=O)n([C@H]2C[C@H](O)[C@@H](CO)O2)cc1CSCC[C@H](N)C(=O)O | DNMT1 (Homo sapiens, UniProt P26358) |  |  | truncated enzyme, with: 26 bp hemimethylated DNA, SAM 1 µM | > 100
Cc1cc(Nc2ccc(C(F)(F)F)cc2)n2ccnc2n1 | pyrD | enzyme activity, inhibitor, DCIP steady-state rate |  |  | 0.098
O=C(CCCCCCC(=O)Nc1ccc(CCF)cc1)NO | HDAC2 (Homo sapiens, UniProt Q92769) |  |  |  | 0.446

Repeated from above:
Compound | target | test | test system | conditions | IC50 [µM]
CCc1ccc(Cn2nnc3c4ccc(F)cc4c(=O)[nH]c32)cc1 | PARP11 (Homo sapiens, UniProt Q9NR21) |  |  |  | > 10
Nc1cc(Nc2ccc(C(F)(F)F)cc2)n2ncnc2n1 | pyrD | enzyme activity, inhibitor, DCIP steady-state rate |  |  | 7 ± 2.6
CN(C)c1nonc1/C(=N/O)Nc1ccc(F)c(Br)c1 | IDO1 (Homo sapiens, UniProt P14902) | enzyme activity, inhibitor |  | pH 6.5 | > 20
